Results of several laboratories.
Each line is one published result; not all experiments were run side by side. ± marks the error that the study gave. Converted amounts (≈) assume the structure as drawn.

CCCC/C=C/C(=O)N[C@@H](Cc1cc(F)cc(F)c1)C(=O)N[C@@H](COC(=O)[C@@H]1CCCN1C(C)=O)C(=O)OC — IC50 (ClpP1P2 (Mycobacterium tuberculosis, UniProt P9WPC3+P9WPC5, Y75V/Y95V); enzyme activity; added: Z-GGL-AMC substrate): 120 µM
CCC1CCc2c(sc3nc(SCCN4CCCCC4)nc(N)c23)C1 (stereo not drawn) — kanamycin MIC (Mycobacterium tuberculosis; K204; 100 µM, compound toxic alone, added: kanamycin): toxic
COc1ccc(CNC(C)(C)C23CC4CC(CC(C4)C2)C3)c(O)c1 — EC50 (influenza A virus; viral replication; A/WSN/33 M2 N31S): 0.09 ± 0.005 µM
CN[C@@H]1[C@H](O)[C@H](NC)[C@H]2O[C@]3(O)[C@H](O[C@@H]2[C@H]1O)O[C@H](C)C[C@H]3NC(=O)Cc1ccc(Cl)cn1 — MIC (Mycobacterium tuberculosis; microbial growth, broth dilution; H37RV): 1.6 µg/mL (≈ 3.29 µM)
CCC1(CC)C2CC3CC(C2)CC1(N(C)C)C3 — EC50 (Influenza A virus; viral replication; A/X-31 (H3N2)): > 100 µM
CC1CCc2c(sc3nc(SCCCN4CCCCC4)nc(N)c23)C1 (stereo not drawn) — kanamycin MIC (Mycobacterium tuberculosis; K204; 100 µM, compound toxic alone, added: kanamycin): toxic
CN[C@@H]1[C@H](O)[C@H](NC)[C@H]2O[C@]3(O)[C@H](O[C@@H]2[C@H]1O)O[C@H](C)C[C@H]3NC(=O)Cc1ccccn1 — MIC (Mycobacterium tuberculosis; microbial growth, broth dilution; H37RV): 1.6 µg/mL (≈ 3.54 µM)
c1nc(N2CCCCCC2)cnc1CNC12CC3CC(CC(C3)C1)C2 — inhibition (Matrix protein 2 (Influenza A virus, UniProt P0DOF5); channel activity, inhibitor; 100 µM): 12.3%
C1CC2C3C4C5CCC4C24CNCC54C13 — EC50 (Influenza A virus; viral replication; A/PR/8/34 cl3; pH 5.7): > 100 µM
CC(C)(C)C1CCc2c(sc3nc(SCCN4CCCCC4)nc(N)c23)C1 (stereo not drawn) — kanamycin MIC (Mycobacterium tuberculosis; K204; 100 µM, compound toxic alone, added: kanamycin): toxic
CCC1(CC)C2CC3CC(C2)CC1(N)C3 — EC50 (Influenza A virus; viral replication; A/X-31 (H3N2)): > 100 µM
CN(C)CCNC(=O)CSc1nc(N)c2c3c(sc2n1)CC(c1ccccc1)CC3 (stereo not drawn) — kanamycin MIC (Mycobacterium tuberculosis; K204; 100 µM, compound toxic alone, added: kanamycin): toxic
CN[C@@H]1[C@H](O)[C@H](NC)[C@H]2O[C@]3(O)[C@H](O[C@@H]2[C@H]1O)O[C@H](C)C[C@H]3NC(=O)Cc1cc(Cl)ccn1 — MIC (Mycobacterium tuberculosis; microbial growth; ATCC35837): 1.6 µg/mL (≈ 3.29 µM)
COc1ccc(CNC23CC4C5CC6CC4C(C2)C(C6)C5C3)c(O)c1 — EC50 (influenza A virus; viral replication; A/WSN/33 M2 N31S): 0.29 ± 0.11 µM
Cc1[nH]c(=O)c(CNC(=O)c2ccc(C(F)(F)F)nc2)c2c1CCCC2 — MIC (Mycobacterium tuberculosis; MDR, isoniazid and rifampicin resistant): 0.9 µg/mL (≈ 2.46 µM)

Some of these lines once more:
CCC1(CC)C2CC3CC(C2)CC1(N(C)C)C3 — EC50 (Influenza A virus; viral replication; A/X-31 (H3N2)): > 100 µM
